Results of several laboratories.
Each line is one published result; not all experiments were run side by side. Values joined by “and” are separate records of one study, mostly repeats; a detail may differ. ± gives the spread as reported.

| Structure (SMILES) | test | system | setting | plasma concentration |
| --- | --- | --- | --- | --- |
| C[C@]12C[C@H](c3ccc(S(C)(=O)=O)cc3)C3=C4CCC(=O)C=C4CC[C@H]3[C@@H]1CC[C@@]2(O)C(F)(F)C(F)(F)F | measured: compound (parent) | healthy human volunteers, pooled plasma | oral, 5 mg daily, day 28, 72 h | 5.84 ng/mL |
| Cc1nn(-c2nc3c(F)cc(F)cc3s2)c(O)c1C(c1ccc(C(F)(F)F)cc1)c1c(C)nn(-c2nc3c(F)cc(F)cc3s2)c1O | – | ICR mouse | intraperitoneal, 10 mg/kg, 0.25 h, mean, abnormal animal excluded | 578 ng/mL |
| CC(CCC(=O)NCC(=O)O)C1CCC2C3CCC4CC(OC5OC(C(=O)O)C(O)C(O)C5O)CCC4(C)C3CC(O)C12C (stereo not drawn) | – | healthy human volunteers, plasma | dose not given, 0 h, baseline phase, no drug | 92.9 ± 25.4 nM |
| O=C(NS(=O)(=O)c1cccs1)c1cc2ccccc2n1Cc1ccc(Br)c2ccccc12 | – | Sprague-Dawley rat, male | oral, dose not given, 0.5 h | 4210 ng/mL |
| C=C[C@]1(C)C[C@@H](OC(=O)CSc2ccc(NC(=O)c3ccco3)cc2)[C@]2(C)[C@H](C)CC[C@]3(CCC(=O)[C@H]32)[C@@H](C)[C@@H]1O | – | Mycoplasma gallisepticum-infected chickens, plasma | intramuscular, 40 mg/kg, 10 h | 58.4 ng/mL and 74 ng/mL and 80.4 ng/mL and 60.3 ng/mL and 51.4 ng/mL and 57.4 ng/mL and 57.5 ng/mL and 56.1 ng/mL |
| Cc1noc(C)c1Cn1cc(N2C(=O)CN(Cc3cccc(O[C@@H]4O[C@H](C(=O)O)[C@@H](O)[C@H](O)[C@H]4O)c3)C2=O)cn1 | – | rat Sprague-Dawley male, plasma | intravenous, 1 mg/kg of parent drug, 0.08 h | 315 ng/mL |
| C[C@H](CCC(=O)NCC(=O)O)[C@H]1CC[C@H]2[C@@H]3[C@H](O)C[C@@H]4C[C@H](OS(=O)(=O)O)CC[C@]4(C)[C@H]3CC[C@]12C | – | healthy human volunteers, plasma | dose not given, 0 h, control phase, probe drugs alone | 82.6 ± 20.6 nM |
| Cc1noc(C)c1Cn1cc(N2C(=O)CN(Cc3cccc(OS(=O)(=O)O)c3)C2=O)cn1 | – | Sprague-Dawley rat, male | oral, 30 mg/kg of parent drug, 1 h | 2980 ng/mL |
| CCC(=O)N(C)c1ccc(Cl)c(Cl)c1 | – | mouse C57BL/6, female, plasma | subcutaneous, 2 mg/kg, 2 h | 18.1 ng/mL |

A few entries again:
| Structure (SMILES) | test | system | setting | plasma concentration |
| --- | --- | --- | --- | --- |
| C[C@]12C[C@H](c3ccc(S(C)(=O)=O)cc3)C3=C4CCC(=O)C=C4CC[C@H]3[C@@H]1CC[C@@]2(O)C(F)(F)C(F)(F)F | measured: compound (parent) | healthy human volunteers, pooled plasma | oral, 5 mg daily, day 28, 72 h | 5.84 ng/mL |
